Measurements of several laboratories.
Numbered parts are unrelated; each lists some results of a single study.

Series 1 — technique: RNA Bind-n-Seq; molecule type: RNA; matrix: in vitro; concentration: 1 µM; notes: whole 134-nt RNA, ends assumed; added: 150 mM KCl; baseline: input library; direction: higher = stronger binding
Target: Ras GTPase-activating protein-binding protein 1, C-terminal RGG region (G3BP1, Homo sapiens, UniProt Q13283)
Chain of UniProt Q13283 (whole entry, looked up): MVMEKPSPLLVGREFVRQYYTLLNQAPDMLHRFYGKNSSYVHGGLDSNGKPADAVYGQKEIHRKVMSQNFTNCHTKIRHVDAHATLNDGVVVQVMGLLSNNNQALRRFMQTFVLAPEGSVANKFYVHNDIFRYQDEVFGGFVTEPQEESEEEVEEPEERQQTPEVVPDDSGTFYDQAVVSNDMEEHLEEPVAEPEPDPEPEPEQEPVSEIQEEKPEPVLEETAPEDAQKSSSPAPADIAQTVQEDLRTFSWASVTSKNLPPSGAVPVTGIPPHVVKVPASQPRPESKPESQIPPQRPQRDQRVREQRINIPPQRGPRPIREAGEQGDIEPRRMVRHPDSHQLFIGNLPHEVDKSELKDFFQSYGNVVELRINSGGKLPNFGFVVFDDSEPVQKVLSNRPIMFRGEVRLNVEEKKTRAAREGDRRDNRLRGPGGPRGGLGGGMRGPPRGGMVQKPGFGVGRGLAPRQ
Oligonucleotide	log2 enrichment
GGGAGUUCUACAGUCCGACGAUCACCAUGCAGGUGGGCAUCUUUGGGAAGUGGGGCAAGGGGGGGAUAGGGAGGGGGGUAACACUUUGGGAACAGGUGGUCCCAGGUAGUUUCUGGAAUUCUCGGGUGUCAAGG	2.03
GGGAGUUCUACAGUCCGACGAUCUCCUCAAGUCCUGUGCUACACAUCGUAUGUACCGAAUCGGAGGAGGGGAGGAAAGUAUUAUGUUACGCCGUUCGGAUCUGCACUUCCAGCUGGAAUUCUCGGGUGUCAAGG	-1.36
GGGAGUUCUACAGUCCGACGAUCGCAGGAAGUAAAAACAAAUGGAAAUGCUUCGGAUAGUGGCAGGGGUGGGGGUCGCUAAGGAAAGGGUGGGAUGGGAGUGGGUAAAGAGUUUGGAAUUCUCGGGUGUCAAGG	0.802
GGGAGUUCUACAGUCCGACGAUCUCCUGUGCUACACAUCGUAUGUACCGAAUCAAAGUGUGUGUGUAAAGUGUGUGUGUAAAAAAGUAUUAUGUUACGCCGUUCGGAUCUGCAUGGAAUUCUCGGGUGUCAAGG	-0.14
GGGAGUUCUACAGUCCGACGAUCCCUCAAGUCCUGUGCUACACAUCGUAUGUACCGAAUCGGCGGGGCGGCGGGGAAAGUAUUAUGUUACGCCGUUCGGAUCUGCACUUCCAGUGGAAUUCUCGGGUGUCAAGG	-0.818
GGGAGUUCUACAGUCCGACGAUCCACAGACAACACGCACCCACACAGACACAGAGGGAAGGGGUUGGGAUAGGGACAGGGUGCACAGCAGGGCGGGGUAGGACCCCAGCCCCUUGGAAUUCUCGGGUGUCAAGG	-0.813
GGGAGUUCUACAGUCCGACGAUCCACAGACAACGCGCACCCACACAGACACAGAGGGAAGGGGUUGGGAUGGGGACAGGGUGCACAGCAGGGCGGGGUAGGACCCCAGCCCCUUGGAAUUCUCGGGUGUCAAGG	-0.253
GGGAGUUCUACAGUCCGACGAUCUGGGAGGUGGAUUUUGUUUCUUUUUUUAGCUCAUUUCCAGGGGUGGGAAUUUUUUUUUAAUAUGUGUCAUGAAUAAAGUUGUUUUUGAAAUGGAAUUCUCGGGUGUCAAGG	2.01
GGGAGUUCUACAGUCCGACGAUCCCUCAAGUCCUGUGCUACACAUCGUAUGUACCGAAUCGGGCGGGGCGGCGGGAAAGUAUUAUGUUACGCCGUUCGGAUCUGCACUUCCAGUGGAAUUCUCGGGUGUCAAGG	-0.365
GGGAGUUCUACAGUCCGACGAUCGUCCUGUGCUACACAUCGUAUGUACCGAAUCGGGGUUUGGGGUUUUUUUGGGGAGGGGAAAGUAUUAUGUUACGCCGUUCGGAUCUGCACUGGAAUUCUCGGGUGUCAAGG	2.17

Series 2 — technique: competition protein-binding microarray; molecule type: double-stranded DNA, one strand shown; matrix: in vitro; concentration: 2 µM; added: Pho4 competitor, 0.05 µM; direction: higher = stronger binding
Target: Centromere-binding protein 1, full length, His-tagged (CBF1, Saccharomyces cerevisiae, UniProt P17106, residues 1-351)
Chain of UniProt P17106 (whole entry, looked up): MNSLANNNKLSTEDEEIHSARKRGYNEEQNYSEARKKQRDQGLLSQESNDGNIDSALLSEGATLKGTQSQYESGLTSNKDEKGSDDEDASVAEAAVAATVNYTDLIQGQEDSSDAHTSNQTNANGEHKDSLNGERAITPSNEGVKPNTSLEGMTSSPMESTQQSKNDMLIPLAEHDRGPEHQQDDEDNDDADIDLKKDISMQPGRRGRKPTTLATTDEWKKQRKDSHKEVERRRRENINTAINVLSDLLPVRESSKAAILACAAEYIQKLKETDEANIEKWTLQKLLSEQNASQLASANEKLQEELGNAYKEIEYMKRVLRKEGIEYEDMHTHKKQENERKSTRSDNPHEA
Notes: whole 60-bp probe, lowest competitor level
Oligonucleotide	fluorescence intensity [a.u.]
GTCTTGTCTCATTGTACCGTGGGTGTCCCCACTTCAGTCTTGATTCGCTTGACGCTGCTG	83.6
ACCTTTTGAATATATCATGTGTTTGTTCTGCTATCTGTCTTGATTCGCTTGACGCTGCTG	337
CGGGGTTAAGTTTGCGCAGTGGGTGGCTTGCAGCAGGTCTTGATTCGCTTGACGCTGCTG	72.8
CTTTCCCGATCTTGCGATGTGGGTGTAGCACATTTGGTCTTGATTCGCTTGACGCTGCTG	84.6
TGACTCAAAATATTTGACATACTGTTCTATGGCTTTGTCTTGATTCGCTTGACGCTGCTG	71
CAGGGTATAGACCGCTGAGGCAAGTGCCGTTAATGGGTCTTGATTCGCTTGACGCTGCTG	52
CATTCGAAGCAGTGCCAAGTTCTATTGTATCATTCCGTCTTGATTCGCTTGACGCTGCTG	69.7
AAATTACTAAGTTTTCACGTGTCTTACCCCGTATGAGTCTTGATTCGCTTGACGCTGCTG	1020
CTAACGAAGGTTTGAGTAGTGGGTGACAAGCCAAGTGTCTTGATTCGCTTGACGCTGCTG	62.6
TGGGTAGTTATAAGAGGCGTGCTTTTTGGCCATCAAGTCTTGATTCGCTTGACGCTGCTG	84.4
CTTGTATATATAAATGTCGTGATGGTTCTATGCCAAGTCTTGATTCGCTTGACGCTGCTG	125
AGCCCGGGGACTTGCCGCGTGGCACCTTGGGGCGCTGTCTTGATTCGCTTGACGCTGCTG	52.7
CAAACTCGAATCCATCACGTTTCACAATTGTTCCAAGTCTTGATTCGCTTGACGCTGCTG	426
CCAATTGATGGTCTACACGTTGTTTCAAGTGCATACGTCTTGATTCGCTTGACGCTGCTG	116
CTTTCCCGATCTTGTGTAGTGGGTGTAGCACATTTGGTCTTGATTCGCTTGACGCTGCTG	69.9
TTGTTTTCTTCTTCACACGTGAGATTTTCCGCCGGCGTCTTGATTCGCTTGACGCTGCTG	917
GTCTTGTCTCATTGGCGAGTGGGTGTCCCCACTTCAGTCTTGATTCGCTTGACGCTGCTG	65.9
AAATTACTAAGTTGTCACCGAACTTACCCCGTATGAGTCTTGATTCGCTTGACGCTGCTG	80.9
CGGCCCAGATTTTTTCACCTGACTCCGGTCCTGACGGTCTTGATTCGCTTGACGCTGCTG	134
TGCAGGTAAGTGACTCACATGCTTTGAAAAGTTCCTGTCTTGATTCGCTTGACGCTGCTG	201
CATACCCAACCTTGAGCGGTGGGTGAAGATATTTGTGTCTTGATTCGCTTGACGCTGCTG	63.1
CTAACGAAGGTTTGATCTGTGGGTGACAAGCCAAGTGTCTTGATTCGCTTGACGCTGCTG	69
CTTTCCCGATCTTGAGATGTGGGTGTAGCACATTTGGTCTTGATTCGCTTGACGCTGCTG	67.4

Series 3 — technique: protein binding microarray; molecule type: double-stranded DNA, one strand shown; matrix: in vitro; concentration: not given; baseline: not given; direction: higher = stronger binding
Target: Histone acetyltransferase KAT6A, winged helix 1, GST fusion (KAT6A, Homo sapiens, UniProt Q92794, residues 1-85)
Notes: 8-mer, flanks averaged, mean of 2 arrays, mostly near background
Residues (chain): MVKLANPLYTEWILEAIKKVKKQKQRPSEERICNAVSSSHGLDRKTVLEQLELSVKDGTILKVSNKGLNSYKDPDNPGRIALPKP
Oligonucleotide	E-score
CCTATGTC	-0.226
CCAATACC	0.072
TCCCTAAA	-0.168
ACTCCTGA	-0.113
GCCACGCC	0.168
ACAAGTAA	-0.0898
AAGACCAC	-0.182
ATGGGTCG	0.0286
GACCCCGC	0.398
AACGCCAG	-0.0909
AGAAATAG	-0.257
ACCGAAAC	0.055
ATTCAATC	-0.145
AGCTGATC	-0.0845
CAGTGCGG	0.357
CGCTTGTA	0.236
ACCCATAA	-0.0975
CGCCTTGA	0.0934
GTAGGGTA	-0.0847
CGGCTTCC	0.334
ATACATCG	-0.0503
ACCGTAGT	0.158
GTTGCGTA	0.149

Series 4 — technique: RNA Bind-n-Seq; molecule type: RNA; matrix: in vitro; concentration: 365 nM; baseline: no-protein control; direction: higher = stronger binding
Target: RNA binding protein fox-1 homolog 2, RRM domain, GST-SBP tag (RBFOX2, Homo sapiens, UniProt O43251-10, residues 100-194)
Notes: natural RNA segment, single round, ends assumed
Residues (chain): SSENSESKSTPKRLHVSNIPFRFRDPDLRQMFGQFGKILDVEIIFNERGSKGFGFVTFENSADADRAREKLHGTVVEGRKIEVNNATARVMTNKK
Oligonucleotide	RBNS enrichment (R)
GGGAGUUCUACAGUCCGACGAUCGGUUUCUUUUUUGGAGUCCUGAGUUCAAAGGGGACAGAACUAAGGGCAGGAGAAGAGAAUGGAUGUGUCUUCUCUCCCAUCUUCCCCUCAUCAUCGACCGAGGAGCACAAUGGAAUUCUCGGGUGCCAA	8.78
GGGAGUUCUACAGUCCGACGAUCAAGAGGCGGCUACCUAUCCUACAGUUACGGUAUUUAUUUACAUAAGAAGAUCUUACAGGAGUUCUUUGCUUGAAUCCGUUCUAACACCCGCGGCAGCUGCACGCGCUCACUGGAAUUCUCGGGUGCCAA	0.366
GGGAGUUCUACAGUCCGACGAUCGAAGUCAGCCCCUGCCCAGAAGAUCUGAAACUAAUAGUAGGAGUUUCCCCAGAAGUCAUUUUCAGCCUUAAUUCUCAUCAUGUAUAAAUUAACAUAAAUCAUGCAUGUCUUGGAAUUCUCGGGUGCCAA	0.78
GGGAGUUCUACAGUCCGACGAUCUAUGUUGUCUGUGUUGUAUUUUUUUUUUUUUAUUGACCAUGGUGAUUAUUUUUUUAAACCAUCGUUAAUAUACUGAAGUGAGCUAUAGCACAUAUCAUGUGCUUAGUUUGUGGAAUUCUCGGGUGCCAA	0.338
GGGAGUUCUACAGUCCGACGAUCGCCAAUUCUGAUGUCCCUUACCUUUUGGCCAAGAAGUUUGAGAUUUUUUCAGCUAAUUUGUUAUUUGACCAGAAGUUGUCUGGGGAGACUGAGUUCUUUGAGUUGCAUAUUGGAAUUCUCGGGUGCCAA	0.721
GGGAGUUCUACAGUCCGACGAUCCCUGAUAGACUGAAAAUUGAGCAAAUGGAAGAAGAUACAGUAUUGUUUAGAUCAGAAUCAUUAAAAAAUAUUUUUGUUUAGUAAGUUUGAAGAUUUCUGGCUUUUAGGCCUGGAAUUCUCGGGUGCCAA	0.873
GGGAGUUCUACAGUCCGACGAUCCAUACCAUCAGUUUCUCAGUUCCAGAAGUUAUACCUUUAUUUUGAGCUGUGUAUAGGUAGAAUAAAAAAUUCCUUUCAUAUCGUUAUUGUACAAAAAGUAAAGAGUAUCCUGGAAUUCUCGGGUGCCAA	0.571
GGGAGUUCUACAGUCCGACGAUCGAAGAUCCAGAUCGUACAAAAAUUAGAAAAAGAAAGAAUAAGAAGGGUCUGGUCCCAGUUCUGACUCGGCCAUUCUUACAGCUCUUUCUGGCUUUGAGUUUGCUUGUGGAUGGAAUUCUCGGGUGCCAA	0.718
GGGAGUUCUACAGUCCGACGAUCUUCUACUUUGAUAUGACUGUUUUUCGGACAGUUUAUUUGUUGAGAGUGUGACCAAAAGUUACAUGUUUGCACCUUUCUAGUUGAAAAUAAAGUGUAUAUUUUUUCUAUAAUGGAAUUCUCGGGUGCCAA	0.845
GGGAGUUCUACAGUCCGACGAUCGCCCCUCAGCCCAGCAGCCUGGGCUCCCAGUGCUGAGGCCCUCUGUUCAGGCCUCCGCCCACCCUGAGUGGAAUGGAGCCAUGCAUUCAGUAAACUGACUUUAUUCUCCCUGGAAUUCUCGGGUGCCAA	0.378
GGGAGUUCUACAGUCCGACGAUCUGUUAAGAGAAGCACUAAGAAUGCCAGUGACCUGUGUAAAAGUUACAAGUAAUAGAACUAUGACUGUAAGCCUCAGUACUGUACAAGGGAAGCUUUUCCUCUCUCUAAUUUGGAAUUCUCGGGUGCCAA	0.399
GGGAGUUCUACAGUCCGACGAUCGGCAUUAAUAAGGGAGCUUACCAUUCUGGUGGGAUGUGCAUGAGGCGUUCACAGCCCCCAUACAUGGAUCUUGUUUAAAGUGUAUUAUUUAAAAGGUCAGGGUGUUAUUUUGGAAUUCUCGGGUGCCAA	1.03

Some of these lines once more (series 1):
Oligonucleotide	log2 enrichment
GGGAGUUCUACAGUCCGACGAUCCCUCAAGUCCUGUGCUACACAUCGUAUGUACCGAAUCGGGCGGGGCGGCGGGAAAGUAUUAUGUUACGCCGUUCGGAUCUGCACUUCCAGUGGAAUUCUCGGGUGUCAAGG	-0.365
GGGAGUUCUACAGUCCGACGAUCCCUCAAGUCCUGUGCUACACAUCGUAUGUACCGAAUCGGCGGGGCGGCGGGGAAAGUAUUAUGUUACGCCGUUCGGAUCUGCACUUCCAGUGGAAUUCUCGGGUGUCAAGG	-0.818
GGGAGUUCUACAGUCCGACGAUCCACAGACAACGCGCACCCACACAGACACAGAGGGAAGGGGUUGGGAUGGGGACAGGGUGCACAGCAGGGCGGGGUAGGACCCCAGCCCCUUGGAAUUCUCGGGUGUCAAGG	-0.253
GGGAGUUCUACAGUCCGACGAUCUCCUCAAGUCCUGUGCUACACAUCGUAUGUACCGAAUCGGAGGAGGGGAGGAAAGUAUUAUGUUACGCCGUUCGGAUCUGCACUUCCAGCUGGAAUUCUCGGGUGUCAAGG	-1.36
